Results collected from several papers.
Protocols differ between the studies behind these lines. Values joined by “and” are separate records of one study, mostly repeats; a detail may differ. ± marks the error that the study gave.
ABCC3: ATP-binding cassette sub-family C member 3 (ABCC3, Homo sapiens, UniProt O15438)
Sequence of UniProt O15438 (whole entry, looked up): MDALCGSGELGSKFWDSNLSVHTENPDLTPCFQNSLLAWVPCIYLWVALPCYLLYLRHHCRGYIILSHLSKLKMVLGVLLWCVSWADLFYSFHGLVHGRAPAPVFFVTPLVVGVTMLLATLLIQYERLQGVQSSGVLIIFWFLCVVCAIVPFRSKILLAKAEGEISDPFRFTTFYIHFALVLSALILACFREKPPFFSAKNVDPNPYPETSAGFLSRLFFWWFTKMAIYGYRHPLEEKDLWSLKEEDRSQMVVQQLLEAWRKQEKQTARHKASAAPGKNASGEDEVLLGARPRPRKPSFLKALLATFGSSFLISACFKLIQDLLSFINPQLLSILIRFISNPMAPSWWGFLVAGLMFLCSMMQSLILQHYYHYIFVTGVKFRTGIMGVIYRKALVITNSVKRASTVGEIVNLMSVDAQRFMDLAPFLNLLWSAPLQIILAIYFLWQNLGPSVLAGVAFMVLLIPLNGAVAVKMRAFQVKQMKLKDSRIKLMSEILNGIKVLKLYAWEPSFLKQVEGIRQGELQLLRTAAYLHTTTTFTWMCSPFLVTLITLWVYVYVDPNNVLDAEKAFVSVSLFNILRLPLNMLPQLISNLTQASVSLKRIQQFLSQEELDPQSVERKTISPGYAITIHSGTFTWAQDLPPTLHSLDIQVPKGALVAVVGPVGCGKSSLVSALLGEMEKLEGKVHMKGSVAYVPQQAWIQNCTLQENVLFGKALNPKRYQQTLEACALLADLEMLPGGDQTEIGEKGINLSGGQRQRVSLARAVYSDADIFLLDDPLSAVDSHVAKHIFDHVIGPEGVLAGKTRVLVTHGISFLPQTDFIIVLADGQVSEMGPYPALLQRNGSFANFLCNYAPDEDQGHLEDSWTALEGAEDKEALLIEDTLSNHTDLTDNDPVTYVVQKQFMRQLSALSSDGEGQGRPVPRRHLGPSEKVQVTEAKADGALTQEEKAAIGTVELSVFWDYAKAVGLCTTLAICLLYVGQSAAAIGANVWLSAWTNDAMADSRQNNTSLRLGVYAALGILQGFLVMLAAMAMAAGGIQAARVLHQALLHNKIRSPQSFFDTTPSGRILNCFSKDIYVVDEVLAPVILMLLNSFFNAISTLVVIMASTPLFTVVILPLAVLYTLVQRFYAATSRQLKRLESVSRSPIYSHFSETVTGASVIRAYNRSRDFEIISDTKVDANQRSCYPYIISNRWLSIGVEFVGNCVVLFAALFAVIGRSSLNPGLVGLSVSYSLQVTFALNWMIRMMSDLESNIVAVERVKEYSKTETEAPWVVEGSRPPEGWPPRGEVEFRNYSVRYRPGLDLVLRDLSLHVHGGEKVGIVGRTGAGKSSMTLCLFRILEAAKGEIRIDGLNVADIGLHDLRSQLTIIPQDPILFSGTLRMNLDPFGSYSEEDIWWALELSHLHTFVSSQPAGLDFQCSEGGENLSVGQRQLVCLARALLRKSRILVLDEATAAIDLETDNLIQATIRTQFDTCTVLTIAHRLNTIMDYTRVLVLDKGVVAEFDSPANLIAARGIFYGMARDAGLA
KCNH2: Voltage-gated inwardly rectifying potassium channel KCNH2 (KCNH2, Homo sapiens, UniProt Q12809)
Sequence of UniProt P05177 (whole entry, looked up): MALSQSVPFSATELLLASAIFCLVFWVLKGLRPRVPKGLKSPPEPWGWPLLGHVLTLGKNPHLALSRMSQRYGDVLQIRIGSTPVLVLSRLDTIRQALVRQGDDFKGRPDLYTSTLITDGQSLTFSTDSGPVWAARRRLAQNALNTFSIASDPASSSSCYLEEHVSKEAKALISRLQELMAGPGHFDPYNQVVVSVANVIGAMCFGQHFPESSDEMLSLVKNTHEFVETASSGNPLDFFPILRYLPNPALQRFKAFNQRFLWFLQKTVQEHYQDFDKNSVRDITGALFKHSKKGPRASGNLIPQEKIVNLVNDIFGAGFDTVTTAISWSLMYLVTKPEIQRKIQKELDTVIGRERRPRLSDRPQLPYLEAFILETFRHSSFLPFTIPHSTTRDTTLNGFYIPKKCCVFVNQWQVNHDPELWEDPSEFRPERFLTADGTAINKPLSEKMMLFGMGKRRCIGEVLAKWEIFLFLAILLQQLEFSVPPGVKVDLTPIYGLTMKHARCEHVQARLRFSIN
Sequence of UniProt Q12809 (whole entry, looked up): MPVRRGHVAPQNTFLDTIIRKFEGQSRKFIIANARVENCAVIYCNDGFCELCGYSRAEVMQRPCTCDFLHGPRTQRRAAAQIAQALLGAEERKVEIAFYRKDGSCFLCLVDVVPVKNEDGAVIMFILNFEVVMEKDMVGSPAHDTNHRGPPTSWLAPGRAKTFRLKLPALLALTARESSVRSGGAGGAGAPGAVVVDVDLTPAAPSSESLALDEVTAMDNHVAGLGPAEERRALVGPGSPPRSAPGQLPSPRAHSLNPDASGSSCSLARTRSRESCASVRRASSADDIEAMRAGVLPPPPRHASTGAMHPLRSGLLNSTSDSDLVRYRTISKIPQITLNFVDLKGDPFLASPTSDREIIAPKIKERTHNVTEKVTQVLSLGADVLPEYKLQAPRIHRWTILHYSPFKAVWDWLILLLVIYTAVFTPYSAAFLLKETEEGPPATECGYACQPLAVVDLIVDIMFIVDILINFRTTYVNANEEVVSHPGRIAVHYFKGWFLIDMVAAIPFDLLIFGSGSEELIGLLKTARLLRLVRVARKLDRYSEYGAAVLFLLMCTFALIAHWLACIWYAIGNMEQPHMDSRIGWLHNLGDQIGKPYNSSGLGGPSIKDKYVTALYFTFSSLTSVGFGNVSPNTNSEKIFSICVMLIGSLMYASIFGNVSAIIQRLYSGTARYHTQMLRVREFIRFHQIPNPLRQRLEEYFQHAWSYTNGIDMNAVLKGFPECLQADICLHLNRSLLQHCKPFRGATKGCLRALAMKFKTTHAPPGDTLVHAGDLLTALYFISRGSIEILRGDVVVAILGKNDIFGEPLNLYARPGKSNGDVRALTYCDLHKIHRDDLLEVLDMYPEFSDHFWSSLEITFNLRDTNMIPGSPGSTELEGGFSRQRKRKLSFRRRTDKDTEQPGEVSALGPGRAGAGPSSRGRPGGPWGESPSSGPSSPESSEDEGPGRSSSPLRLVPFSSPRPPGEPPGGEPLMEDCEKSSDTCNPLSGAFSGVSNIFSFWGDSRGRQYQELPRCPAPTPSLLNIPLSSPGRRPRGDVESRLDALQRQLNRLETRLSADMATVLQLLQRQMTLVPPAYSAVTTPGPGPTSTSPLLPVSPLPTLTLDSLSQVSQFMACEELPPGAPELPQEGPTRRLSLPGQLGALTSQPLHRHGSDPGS

C=CC(=O)Nc1cccc(Cn2ncc3cnc(Nc4cnn(CCOC)c4)nc32)c1  percent of control (LATS1 human; binding, KINOMEscan; 100 nM; lower = stronger binding): 68%
COc1cc2nc(c1)CNCc1cc(OC)cc(n1)CNC2.[Cu+2]  anodic peak potential (Cu(II)/Cu(I) redox couple; cyclic voltammetry; DMF; added: TBAP; reference: Fc/Fc+): -743 mV
O=C(Nc1cnccc1-c1ccc([18F])nc1)c1ccnc(NC(=O)C2CC2)c1  SUV (GSK-3β imaging tracer; FVB/NJ mice, both sexes, brain; intravenous, 1 min, early frames, no P-gp inhibitor): 0.45 ± 0.2
CN1CCCNC(=O)c2cccc(c2)C(=O)NCCCN(C)CCCNc2cccc3c2C(=O)c2cccc(c2C3=O)NCCC1  log2 fold change (SAS; RNA-Seq, item: MEAF6 mRNA; 1 µM, 6 h; reference: untreated cells): -0.488
O=C(Nc1cnccc1-c1ccc([18F])cc1)c1ccnc(NC(=O)C2CC2)c1  SUV (GSK-3β imaging tracer; FVB/NJ mice, both sexes, brain; intravenous, 1 min, early frames, no P-gp inhibitor): 1.22 ± 0.45
CC(C)OCCOCc1ccc(OCC(O)CN(N=O)C(C)C)cc1 (stereo not shown)  revertant fold increase (Salmonella typhimurium; Ames test; TA98; 50 µg/plate, 30 % hamster S9; reference: solvent control): 1.1 fold
O=C(c1ccc(OCCN2CCCCC2)cc1)c1c(-c2ccc(O)cc2)sc2cc(O[C@@H]3O[C@H](C(=O)O)[C@@H](O)[C@H](O)[C@H]3O)ccc12  intrinsic clearance (ABCC3; substrate; Sf9 membrane vesicles; pH 7): 31.2 µL/min/mg protein
Ic1cc2nc(c1)CNCc1cc(I)cc(n1)CNC2.[Cu+2]  anodic peak potential (Cu(II)/Cu(I) redox couple; cyclic voltammetry; DMF; added: TBAP; reference: Fc/Fc+): -636 mV
O=C1NC2(CC2)COc2ncc(F)cc2[C@H]2COCCN2c2ccn3ncc1c3n2  inhibition (KCNH2; potassium current, whole-cell patch clamp; CHO cells expressing hERG; 0.16 µM): 3.75 ± 2.3%
O=C(O)CN1CCN(Cc2cccc(C(=O)O)n2)CCN(CP(=O)(O)O)CC1  log K101 stability constant (Y3+; UV-vis spectrophotometric titration; [M(L)]- complex): 23.8
Cc1cc(/C=C/C#N)cc(C)c1Oc1nc(NC2CCN(Cc3ccc(S(C)(=O)=O)cc3)CC2)nc2ncccc12  inhibition (KCNH2; hERG current, manual patch clamp; CHO stably expressing hERG; 1 µM): 40.1%
[Cu+2].c1cc2nc(c1)CNCc1cccc(n1)CNC2  peak potential separation (Cu(II)/Cu(I) redox couple; cyclic voltammetry; DMF; 0.1 M TBAP, 100 mV/s scan): 99 mV
COC1CN([C@H]2CC[C@H]([C@@]3(C)Oc4c(Cl)cc(C(=O)NCc5c(SC)cc(C)[nH]c5=O)c(C)c4O3)CC2)C1  log2 fold change (RNA-seq, item: GNG12 mouse homolog; mouse, HT-1376 xenograft, whole blood; dose not given; reference: vehicle): 0.259
Nc1ncc(-c2cc(-c3cnn(CC(F)(F)F)c3)ncc2F)nc1C(=O)NC1CNCC(F)C1 (stereo not shown)  remaining binding (HIPK2; KINOMEscan; 1 µM; reference: DMSO control): 56%
Clc1cc2nc(c1)CNCc1cc(Cl)cc(n1)CNC2.[Cu+2]  cathodic peak potential (Cu(II)/Cu(I) redox couple; cyclic voltammetry; DMF; added: TBAP; reference: Fc/Fc+): -703 mV
O=C(O)c1ccc(/C=C2\SC(=S)N(Cc3cccc(C(F)(F)F)c3)C2=O)cc1  inhibition (KCNH2; ion current, inhibitor, patch clamp; CHO; 3 µM): -3.38%
O=C(c1ccc(OCCN2CCCCC2)cc1)c1c(-c2ccc(O[C@@H]3O[C@H](C(=O)O)[C@@H](O)[C@H](O)[C@H]3O)cc2)sc2cc(O)ccc12  intrinsic clearance (ABCC3; substrate; Sf9 membrane vesicles; pH 7): 155 µL/min/mg protein
CNC(=O)C1CCCN(C(=O)C2CC3CCC2N3C(=O)[C@@H]2C[C@@H](O)CN2C(=O)NCc2cccc(Cl)c2F)C1 (mixture of isomers)  remaining activity (Cytochrome P450 1A2 (CYP1A2, Homo sapiens, UniProt P05177); preincubation with NADPH; human; 50 µM; reference: negative control): 108% and 106% and 105%
C=C(NC(=O)c1csc(-c2nc3c(cc2O)-c2nc(cs2)C(=O)NC(C(C)O)C(=O)NC(=C(C)OC)c2nc(cs2)C(=O)NC2c4nc(cs4)C(=O)NC(COC(=O)c4c5c6c(cccc6n4O)COC(=O)C(OC4CC(C)(O)C(N(C)C)C(C)O4)C2OC5)c2nc-3cs2)n1)C(N)=O (stereo not shown)  Vz/F (Sprague-Dawley rat, male, plasma; intravenous infusion, 6 mg/kg, multiple doses, day 7): 40.3 L/kg

Repeated from above:
O=C(c1ccc(OCCN2CCCCC2)cc1)c1c(-c2ccc(O[C@@H]3O[C@H](C(=O)O)[C@@H](O)[C@H](O)[C@H]3O)cc2)sc2cc(O)ccc12  intrinsic clearance (ABCC3; substrate; Sf9 membrane vesicles; pH 7): 155 µL/min/mg protein
CNC(=O)C1CCCN(C(=O)C2CC3CCC2N3C(=O)[C@@H]2C[C@@H](O)CN2C(=O)NCc2cccc(Cl)c2F)C1 (mixture of isomers)  remaining activity (Cytochrome P450 1A2 (CYP1A2, Homo sapiens, UniProt P05177); preincubation with NADPH; human; 50 µM; reference: negative control): 108% and 106% and 105%
